Measurements gathered from unrelated publications.
Each numbered part is a random draw from the data of one study; scales do not carry over between parts.
UniProt Q9Y5S2, sequence (whole entry, looked up): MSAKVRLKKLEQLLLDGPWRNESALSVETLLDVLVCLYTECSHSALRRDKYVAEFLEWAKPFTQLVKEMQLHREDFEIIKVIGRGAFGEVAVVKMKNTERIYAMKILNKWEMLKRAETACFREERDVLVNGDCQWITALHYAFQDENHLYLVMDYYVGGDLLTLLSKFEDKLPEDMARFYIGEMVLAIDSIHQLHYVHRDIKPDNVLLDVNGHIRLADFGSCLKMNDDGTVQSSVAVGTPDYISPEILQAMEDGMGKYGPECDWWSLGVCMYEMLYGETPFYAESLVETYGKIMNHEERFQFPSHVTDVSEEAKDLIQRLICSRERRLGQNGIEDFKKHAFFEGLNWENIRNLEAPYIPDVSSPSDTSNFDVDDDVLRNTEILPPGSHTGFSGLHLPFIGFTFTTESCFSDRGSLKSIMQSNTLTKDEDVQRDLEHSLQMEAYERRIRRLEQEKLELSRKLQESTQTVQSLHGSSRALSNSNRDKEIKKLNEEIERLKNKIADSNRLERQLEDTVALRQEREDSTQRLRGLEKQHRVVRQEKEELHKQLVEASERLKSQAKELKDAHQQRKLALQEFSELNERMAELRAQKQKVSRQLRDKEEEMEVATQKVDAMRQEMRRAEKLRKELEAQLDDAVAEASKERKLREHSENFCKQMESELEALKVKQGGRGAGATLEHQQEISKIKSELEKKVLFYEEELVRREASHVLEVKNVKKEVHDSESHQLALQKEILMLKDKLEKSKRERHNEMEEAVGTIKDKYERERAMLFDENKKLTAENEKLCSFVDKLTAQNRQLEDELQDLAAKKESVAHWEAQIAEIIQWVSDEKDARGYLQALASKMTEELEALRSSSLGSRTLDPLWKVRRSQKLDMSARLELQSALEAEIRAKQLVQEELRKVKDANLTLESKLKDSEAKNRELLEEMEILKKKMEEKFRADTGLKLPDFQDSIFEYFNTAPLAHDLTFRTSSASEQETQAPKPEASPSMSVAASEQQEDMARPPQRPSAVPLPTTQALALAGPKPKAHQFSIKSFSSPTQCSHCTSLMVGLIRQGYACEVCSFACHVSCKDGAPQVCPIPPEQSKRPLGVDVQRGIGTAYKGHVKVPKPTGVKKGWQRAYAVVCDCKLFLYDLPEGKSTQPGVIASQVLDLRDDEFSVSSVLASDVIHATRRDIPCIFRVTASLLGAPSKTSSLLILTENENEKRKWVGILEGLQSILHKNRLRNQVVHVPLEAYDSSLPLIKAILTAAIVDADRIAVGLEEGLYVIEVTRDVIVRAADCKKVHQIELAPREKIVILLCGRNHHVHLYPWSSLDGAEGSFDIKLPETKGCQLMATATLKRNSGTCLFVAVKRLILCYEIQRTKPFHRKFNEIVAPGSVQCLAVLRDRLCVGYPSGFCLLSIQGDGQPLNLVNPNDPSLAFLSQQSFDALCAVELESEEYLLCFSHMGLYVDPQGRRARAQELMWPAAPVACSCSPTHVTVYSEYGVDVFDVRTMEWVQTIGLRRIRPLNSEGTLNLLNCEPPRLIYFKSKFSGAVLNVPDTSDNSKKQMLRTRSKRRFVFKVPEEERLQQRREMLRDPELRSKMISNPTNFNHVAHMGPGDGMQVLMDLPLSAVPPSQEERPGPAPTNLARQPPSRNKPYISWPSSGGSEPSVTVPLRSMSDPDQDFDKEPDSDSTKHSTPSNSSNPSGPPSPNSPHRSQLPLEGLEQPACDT
UniProt Q9HAZ1, sequence (whole entry, looked up): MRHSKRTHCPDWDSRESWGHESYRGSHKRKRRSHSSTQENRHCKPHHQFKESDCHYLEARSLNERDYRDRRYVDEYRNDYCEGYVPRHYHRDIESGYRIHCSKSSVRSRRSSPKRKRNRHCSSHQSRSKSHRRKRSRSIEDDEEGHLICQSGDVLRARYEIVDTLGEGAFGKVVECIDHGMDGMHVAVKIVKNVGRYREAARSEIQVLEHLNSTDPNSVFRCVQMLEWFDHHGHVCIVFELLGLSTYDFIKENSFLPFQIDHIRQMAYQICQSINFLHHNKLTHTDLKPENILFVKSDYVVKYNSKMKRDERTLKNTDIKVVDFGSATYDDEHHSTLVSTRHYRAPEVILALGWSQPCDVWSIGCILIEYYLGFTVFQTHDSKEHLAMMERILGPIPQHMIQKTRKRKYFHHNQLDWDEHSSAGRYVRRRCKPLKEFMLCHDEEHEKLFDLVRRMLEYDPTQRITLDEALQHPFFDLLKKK
UniProt P35968, sequence (whole entry, looked up): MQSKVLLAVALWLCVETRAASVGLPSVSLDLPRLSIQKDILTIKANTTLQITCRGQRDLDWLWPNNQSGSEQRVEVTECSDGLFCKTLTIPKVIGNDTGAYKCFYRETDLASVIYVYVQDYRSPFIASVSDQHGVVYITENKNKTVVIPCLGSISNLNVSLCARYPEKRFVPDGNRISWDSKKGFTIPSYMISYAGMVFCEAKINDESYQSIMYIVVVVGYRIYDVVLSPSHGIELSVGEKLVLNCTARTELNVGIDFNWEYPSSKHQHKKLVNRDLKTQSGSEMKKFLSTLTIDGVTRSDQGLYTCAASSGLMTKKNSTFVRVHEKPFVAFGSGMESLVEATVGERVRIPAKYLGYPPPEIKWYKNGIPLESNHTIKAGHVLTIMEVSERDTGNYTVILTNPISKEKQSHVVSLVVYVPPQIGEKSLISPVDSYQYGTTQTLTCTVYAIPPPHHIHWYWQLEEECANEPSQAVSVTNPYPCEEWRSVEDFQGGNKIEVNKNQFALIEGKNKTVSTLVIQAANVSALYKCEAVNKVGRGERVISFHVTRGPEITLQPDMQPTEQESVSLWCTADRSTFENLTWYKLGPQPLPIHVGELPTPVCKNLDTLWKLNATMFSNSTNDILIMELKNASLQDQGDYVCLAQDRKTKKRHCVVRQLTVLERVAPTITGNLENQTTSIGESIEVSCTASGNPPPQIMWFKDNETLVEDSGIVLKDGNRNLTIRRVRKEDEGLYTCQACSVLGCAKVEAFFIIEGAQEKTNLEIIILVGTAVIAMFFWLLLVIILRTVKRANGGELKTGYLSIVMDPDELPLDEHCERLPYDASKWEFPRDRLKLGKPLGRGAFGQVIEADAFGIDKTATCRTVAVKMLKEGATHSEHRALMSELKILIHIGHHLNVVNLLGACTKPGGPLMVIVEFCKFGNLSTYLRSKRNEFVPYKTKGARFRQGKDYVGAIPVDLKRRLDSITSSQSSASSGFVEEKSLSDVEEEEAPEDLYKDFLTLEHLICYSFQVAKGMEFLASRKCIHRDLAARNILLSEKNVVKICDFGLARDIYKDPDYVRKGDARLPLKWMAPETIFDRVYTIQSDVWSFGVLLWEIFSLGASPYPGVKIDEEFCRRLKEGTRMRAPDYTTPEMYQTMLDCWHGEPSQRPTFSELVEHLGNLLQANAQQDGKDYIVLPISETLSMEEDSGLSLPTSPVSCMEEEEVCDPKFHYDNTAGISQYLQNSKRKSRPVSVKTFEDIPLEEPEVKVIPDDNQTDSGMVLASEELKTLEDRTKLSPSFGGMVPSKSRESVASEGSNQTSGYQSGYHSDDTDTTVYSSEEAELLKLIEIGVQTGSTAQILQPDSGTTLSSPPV
UniProt Q9H4B4, sequence (whole entry, looked up): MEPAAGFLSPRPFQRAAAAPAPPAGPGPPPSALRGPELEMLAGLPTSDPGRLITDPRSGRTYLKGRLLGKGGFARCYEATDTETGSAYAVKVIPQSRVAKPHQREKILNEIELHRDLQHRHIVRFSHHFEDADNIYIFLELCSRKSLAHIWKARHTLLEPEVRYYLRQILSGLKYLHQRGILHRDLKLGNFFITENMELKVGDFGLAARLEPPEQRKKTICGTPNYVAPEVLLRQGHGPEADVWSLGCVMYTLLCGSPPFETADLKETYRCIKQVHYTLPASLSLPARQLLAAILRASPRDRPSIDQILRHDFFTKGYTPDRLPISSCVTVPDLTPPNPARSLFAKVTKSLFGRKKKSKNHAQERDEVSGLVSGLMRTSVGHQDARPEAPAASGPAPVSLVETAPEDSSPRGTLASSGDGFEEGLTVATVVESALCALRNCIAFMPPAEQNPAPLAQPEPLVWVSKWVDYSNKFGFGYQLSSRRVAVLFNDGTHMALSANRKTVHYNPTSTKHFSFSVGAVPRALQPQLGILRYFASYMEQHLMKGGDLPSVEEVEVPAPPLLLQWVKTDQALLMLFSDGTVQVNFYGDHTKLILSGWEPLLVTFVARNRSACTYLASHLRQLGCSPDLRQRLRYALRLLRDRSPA
UniProt O15530, sequence (whole entry, looked up): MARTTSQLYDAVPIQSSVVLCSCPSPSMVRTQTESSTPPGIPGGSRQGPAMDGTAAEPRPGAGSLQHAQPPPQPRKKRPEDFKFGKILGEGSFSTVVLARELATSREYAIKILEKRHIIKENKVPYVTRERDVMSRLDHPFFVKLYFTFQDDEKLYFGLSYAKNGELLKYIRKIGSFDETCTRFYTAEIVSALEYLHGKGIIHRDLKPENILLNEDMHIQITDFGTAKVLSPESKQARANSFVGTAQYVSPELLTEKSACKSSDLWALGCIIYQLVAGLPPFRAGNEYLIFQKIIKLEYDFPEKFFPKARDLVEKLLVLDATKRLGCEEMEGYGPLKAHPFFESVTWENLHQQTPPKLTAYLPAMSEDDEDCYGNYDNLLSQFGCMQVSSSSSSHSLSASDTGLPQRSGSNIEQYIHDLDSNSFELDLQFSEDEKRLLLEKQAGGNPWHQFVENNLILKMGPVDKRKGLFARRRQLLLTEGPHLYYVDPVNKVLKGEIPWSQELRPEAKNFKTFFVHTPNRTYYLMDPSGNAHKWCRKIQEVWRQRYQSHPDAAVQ
UniProt P06493, sequence (whole entry, looked up): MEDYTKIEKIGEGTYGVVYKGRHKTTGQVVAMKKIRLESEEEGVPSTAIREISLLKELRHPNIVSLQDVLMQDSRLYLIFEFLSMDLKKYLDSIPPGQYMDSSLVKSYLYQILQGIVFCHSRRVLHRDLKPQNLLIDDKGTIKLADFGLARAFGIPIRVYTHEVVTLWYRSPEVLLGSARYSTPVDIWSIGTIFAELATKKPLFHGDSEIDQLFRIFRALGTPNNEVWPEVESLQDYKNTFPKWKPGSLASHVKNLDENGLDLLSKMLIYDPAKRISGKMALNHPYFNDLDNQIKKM

Series 1
Species: mouse
Sample: microsomes or S9
Concentration: 2 µM
Time: 0.5 h
Structure (SMILES)	remaining compound [%]
CC(C)n1c(N2CCCN(C(=O)c3cc4cc(Cl)ccc4[nH]3)CC2)cc(=O)n(C(C)C)c1=O	7.52
CC(C)NC(=O)c1[nH]cnc1C(=O)N1CCCCCC1	53.9
Cc1nc2cc(NC(=O)c3cccc4cn[nH]c34)ccc2o1	0.57
CC(=O)Nc1cccc(C2CCN(CCCn3nc(S(=O)(=O)c4ccc(C)cc4)c4ccccc4c3=O)CC2)c1	2.32
CS(=O)(=O)c1nc2c(n1-c1ccccc1)C(=O)C(c1ccccc1)S(=O)(=O)N2Cc1ccccc1 (stereo not shown)	1.67
Cc1ccc(OCCn2c(C)c(/C=N/n3cnnc3)c3ccccc32)cc1C	24.5
CCC12OCC(C)(C)N1O/C(=N/c1ccccc1)N2c1ccccc1 (stereo not shown)	0.33

Series 2
Structure (SMILES): CCC(=O)N[C@@H]1CC[C@H](C(=O)N(C)c2ccc(-c3nc4ccccc4o3)cc2)C1
Read-out: cell-free assay
Technique: competition with immobilised ligand
Concentration: 1 µM
target	remaining binding [%]
Mast/stem cell growth factor receptor Kit (KIT, Homo sapiens, UniProt P10721, T670I/V559D)	93
Serine/threonine-protein kinase Nek11 (NEK11, Homo sapiens, UniProt Q8NG66)	100
MAP/microtubule affinity-regulating kinase 3 (MARK3, Homo sapiens, UniProt P27448)	100
3-phosphoinositide-dependent protein kinase 1 (PDPK1, Homo sapiens, UniProt O15530)	100

Series 3
Cell line: mouse MPNST tumor cells
Technique: high-content nuclear imaging
Refers to: cell number
Concentration: 10 µM
Time: 12 h
Notes: mean of 2 replicates
Relative to: plate mean
Reading: higher = more cells
Compound	nuclei count
CC(C)(N)c1ncc(-c2ccc(OC(F)(F)F)cc2)[nH]1	2.28 z-score
CCCCC1(COC(=O)CCC(=O)O)C(=O)N(c2ccccc2)N(c2ccccc2)C1=O	0.363 z-score
O=C(N/N=C/c1ccc([N+](=O)[O-])o1)c1ccc(O)cc1	-0.629 z-score
C[C@H](N)COC(=O)[C@H](CCCCN)NC(=O)Cc1c(-c2ccc3ccccc3c2)[nH]c2c1ccc1ccccc12	1.28 z-score

Series 4
Structure (SMILES): Nc1nccc(-c2c(-c3ccc(F)cc3)ncn2C2CCNCC2)n1
Read-out: enzyme activity
Action: inhibitor
Concentration: 0.5 µM
Relative to: control
target	remaining activity
Cyclin-dependent kinase 1, with cyclin A (CDK1, Homo sapiens, UniProt P06493)	92.7%
cGMP-dependent protein kinase 2 (PRKG2, Homo sapiens, UniProt Q13237)	97.2%
Serine/threonine-protein kinase PAK 3 (PAK3, Homo sapiens, UniProt O75914)	105%
Serine/threonine-protein kinase PLK3 (PLK3, Homo sapiens, UniProt Q9H4B4)	97.8%
Ribosomal protein S6 kinase alpha-4 (RPS6KA4, Homo sapiens, UniProt O75676)	98.7%
Dual specificity protein kinase CLK4 (CLK4, Homo sapiens, UniProt Q9HAZ1)	96.9%
Discoidin domain-containing receptor 2 (DDR2, Homo sapiens, UniProt Q16832)	107%
Serine/threonine-protein kinase DCLK2 (DCLK2, Homo sapiens, UniProt Q8N568)	99.9%
Vascular endothelial growth factor receptor 2 (KDR, Homo sapiens, UniProt P35968)	102%
Rho-associated protein kinase 1 (ROCK1, Homo sapiens, UniProt Q13464)	103%
G protein-coupled receptor kinase 4 (GRK4, Homo sapiens, UniProt P32298)	96.9%
Hepatocyte growth factor receptor (MET, Homo sapiens, UniProt P08581)	104%
Serine/threonine-protein kinase MRCK beta (CDC42BPB, Homo sapiens, UniProt Q9Y5S2)	101%

Some of these lines once more (series 4):
target	remaining activity
Serine/threonine-protein kinase DCLK2 (DCLK2, Homo sapiens, UniProt Q8N568)	99.9%
Vascular endothelial growth factor receptor 2 (KDR, Homo sapiens, UniProt P35968)	102%
Rho-associated protein kinase 1 (ROCK1, Homo sapiens, UniProt Q13464)	103%
